Results gathered from unrelated publications.
± gives the spread as reported.
Chymotrypsin-C S216A: Chymotrypsin-C (Homo sapiens, UniProt Q99895, S216A)
Chain of UniProt Q99895 (whole entry, unmodified, looked up): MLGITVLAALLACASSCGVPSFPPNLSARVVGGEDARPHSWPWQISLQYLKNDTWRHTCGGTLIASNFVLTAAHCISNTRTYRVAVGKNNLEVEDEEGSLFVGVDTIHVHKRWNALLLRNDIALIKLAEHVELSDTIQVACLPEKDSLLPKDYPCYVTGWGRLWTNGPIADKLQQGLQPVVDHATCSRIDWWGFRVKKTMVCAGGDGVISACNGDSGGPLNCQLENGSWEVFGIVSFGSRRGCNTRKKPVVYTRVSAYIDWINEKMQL
Chain of UniProt Q9UI08 (whole entry, looked up): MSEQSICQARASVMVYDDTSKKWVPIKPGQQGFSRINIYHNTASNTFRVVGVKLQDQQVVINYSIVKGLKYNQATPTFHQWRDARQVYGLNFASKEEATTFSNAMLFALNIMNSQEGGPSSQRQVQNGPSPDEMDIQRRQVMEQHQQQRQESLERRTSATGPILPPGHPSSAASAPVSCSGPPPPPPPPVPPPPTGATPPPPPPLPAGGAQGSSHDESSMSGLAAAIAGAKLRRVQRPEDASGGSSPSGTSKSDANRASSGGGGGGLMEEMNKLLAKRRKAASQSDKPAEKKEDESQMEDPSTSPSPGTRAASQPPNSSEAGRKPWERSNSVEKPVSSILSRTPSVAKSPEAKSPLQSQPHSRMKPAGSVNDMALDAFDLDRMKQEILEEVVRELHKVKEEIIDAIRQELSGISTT
Chain of UniProt O95619 (whole entry, looked up): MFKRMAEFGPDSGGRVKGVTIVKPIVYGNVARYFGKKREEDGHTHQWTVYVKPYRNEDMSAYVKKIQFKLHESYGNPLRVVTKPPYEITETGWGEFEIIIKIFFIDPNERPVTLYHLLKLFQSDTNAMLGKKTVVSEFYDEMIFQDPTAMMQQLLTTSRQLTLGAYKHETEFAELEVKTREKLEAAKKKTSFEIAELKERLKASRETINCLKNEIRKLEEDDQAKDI
Chain of UniProt P31554 (whole entry, looked up): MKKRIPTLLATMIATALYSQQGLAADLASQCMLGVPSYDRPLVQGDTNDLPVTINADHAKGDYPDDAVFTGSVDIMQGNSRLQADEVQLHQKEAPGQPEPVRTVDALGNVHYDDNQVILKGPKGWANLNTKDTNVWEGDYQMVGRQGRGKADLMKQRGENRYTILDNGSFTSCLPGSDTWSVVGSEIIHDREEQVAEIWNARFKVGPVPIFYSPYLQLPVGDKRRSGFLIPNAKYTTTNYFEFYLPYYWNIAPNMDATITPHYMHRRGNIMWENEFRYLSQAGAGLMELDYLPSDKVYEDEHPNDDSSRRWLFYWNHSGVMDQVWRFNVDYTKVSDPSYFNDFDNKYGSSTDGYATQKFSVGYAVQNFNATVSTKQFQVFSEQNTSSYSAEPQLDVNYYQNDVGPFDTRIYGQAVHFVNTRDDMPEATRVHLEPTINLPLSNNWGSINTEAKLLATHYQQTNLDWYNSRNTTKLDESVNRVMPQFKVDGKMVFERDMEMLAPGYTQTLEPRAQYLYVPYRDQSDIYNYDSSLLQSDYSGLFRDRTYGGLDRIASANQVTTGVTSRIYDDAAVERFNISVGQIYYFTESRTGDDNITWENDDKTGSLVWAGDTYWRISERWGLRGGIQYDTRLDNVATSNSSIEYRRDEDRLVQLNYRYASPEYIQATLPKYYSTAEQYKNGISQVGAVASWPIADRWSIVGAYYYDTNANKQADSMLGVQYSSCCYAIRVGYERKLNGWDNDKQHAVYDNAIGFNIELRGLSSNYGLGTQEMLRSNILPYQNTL
Chain of UniProt P62258 (whole entry, looked up): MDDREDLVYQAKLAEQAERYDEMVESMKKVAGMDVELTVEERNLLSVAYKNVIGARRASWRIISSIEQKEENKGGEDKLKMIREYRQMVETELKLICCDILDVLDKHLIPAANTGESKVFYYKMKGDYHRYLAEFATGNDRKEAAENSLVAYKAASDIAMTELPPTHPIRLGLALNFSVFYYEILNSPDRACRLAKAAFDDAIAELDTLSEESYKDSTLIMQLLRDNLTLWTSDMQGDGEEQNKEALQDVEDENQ
Chain of UniProt Q12884 (whole entry, looked up): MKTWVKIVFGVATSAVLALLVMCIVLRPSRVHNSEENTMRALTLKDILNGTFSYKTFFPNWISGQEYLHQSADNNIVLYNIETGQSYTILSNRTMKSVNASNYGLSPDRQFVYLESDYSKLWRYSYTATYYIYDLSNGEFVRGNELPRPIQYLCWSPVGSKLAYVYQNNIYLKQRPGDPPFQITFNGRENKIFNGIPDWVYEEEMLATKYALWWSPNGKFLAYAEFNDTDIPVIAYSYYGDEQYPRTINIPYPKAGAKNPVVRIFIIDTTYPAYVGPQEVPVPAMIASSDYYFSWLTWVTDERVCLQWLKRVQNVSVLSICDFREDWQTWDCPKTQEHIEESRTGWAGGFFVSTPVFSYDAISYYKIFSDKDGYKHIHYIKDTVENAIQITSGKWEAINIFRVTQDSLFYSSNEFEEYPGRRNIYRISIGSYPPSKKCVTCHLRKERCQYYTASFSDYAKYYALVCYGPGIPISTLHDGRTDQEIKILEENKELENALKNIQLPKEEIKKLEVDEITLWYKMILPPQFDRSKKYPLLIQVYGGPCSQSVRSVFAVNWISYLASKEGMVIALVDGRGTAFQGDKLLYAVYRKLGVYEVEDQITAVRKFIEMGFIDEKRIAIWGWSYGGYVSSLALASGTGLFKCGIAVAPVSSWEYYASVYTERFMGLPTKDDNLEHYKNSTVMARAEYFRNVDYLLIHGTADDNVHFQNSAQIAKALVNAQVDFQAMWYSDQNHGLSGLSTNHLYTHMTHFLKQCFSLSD
Chain of UniProt A0QYE8 (whole entry, looked up): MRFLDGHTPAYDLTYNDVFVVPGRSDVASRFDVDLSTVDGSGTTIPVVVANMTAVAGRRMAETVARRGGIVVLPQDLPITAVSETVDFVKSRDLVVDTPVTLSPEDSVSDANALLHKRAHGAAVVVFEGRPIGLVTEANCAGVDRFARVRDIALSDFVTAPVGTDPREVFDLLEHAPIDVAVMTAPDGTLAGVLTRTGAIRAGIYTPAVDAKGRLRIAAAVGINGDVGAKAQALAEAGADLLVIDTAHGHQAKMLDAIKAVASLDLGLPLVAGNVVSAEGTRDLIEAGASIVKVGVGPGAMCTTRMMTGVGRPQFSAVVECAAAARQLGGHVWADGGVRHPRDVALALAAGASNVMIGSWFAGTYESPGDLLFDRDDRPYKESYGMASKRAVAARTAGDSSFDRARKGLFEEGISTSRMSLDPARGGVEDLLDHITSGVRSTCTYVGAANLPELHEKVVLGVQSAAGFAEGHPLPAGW
Chain of UniProt P0ADC1 (whole entry, looked up): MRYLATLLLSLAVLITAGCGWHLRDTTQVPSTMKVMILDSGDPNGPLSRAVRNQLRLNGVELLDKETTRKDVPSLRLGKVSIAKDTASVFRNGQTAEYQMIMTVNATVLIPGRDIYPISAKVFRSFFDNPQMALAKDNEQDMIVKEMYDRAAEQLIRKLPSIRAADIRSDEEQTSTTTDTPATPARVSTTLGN
Chain of UniProt P36507 (whole entry, looked up): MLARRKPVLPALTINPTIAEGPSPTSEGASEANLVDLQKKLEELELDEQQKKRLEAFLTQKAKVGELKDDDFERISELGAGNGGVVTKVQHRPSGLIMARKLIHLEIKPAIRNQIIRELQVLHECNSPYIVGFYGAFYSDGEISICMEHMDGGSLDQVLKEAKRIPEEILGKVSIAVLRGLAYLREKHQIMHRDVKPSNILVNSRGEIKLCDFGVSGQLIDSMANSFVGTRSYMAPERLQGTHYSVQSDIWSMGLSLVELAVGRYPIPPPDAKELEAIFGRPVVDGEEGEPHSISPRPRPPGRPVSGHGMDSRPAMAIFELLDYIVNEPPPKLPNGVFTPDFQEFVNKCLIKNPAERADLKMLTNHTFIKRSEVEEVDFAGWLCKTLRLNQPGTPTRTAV

`CC(=O)NC1C(OC2C(O)C(CO)OC(O)C2OC2OC(C)C(O)C(O)C2O)OC(CO)C(O)C1O` (stereo not drawn) has a Kd of 9.85 µM (Intermedilysin (Streptococcus intermedius, UniProt Q9LCB8); binding).
With `CC(C)C[C@@H]1NC(=O)[C@H](CC(C)C)NC(=O)[C@H](CC(C)C)NC(=O)[C@H](Cc2c[nH]c3ccccc23)NC(=O)[C@@H]2CSSC[C@@H]3NC(=O)[C@H]([C@@H](C)O)NC(=O)[C@H](CC(N)=O)NC(=O)[C@H](CSSC[C@@H](C(=O)N[C@@H](CC(=O)O)C(=O)N[C@@H](CCC(N)=O)C(=O)O)NC1=O)NC(=O)[C@H](CCCCN)NC(=O)[C@H](CC(=O)O)NC(=O)[C@H](CCCCN)NC(=O)[C@H](Cc1ccccc1)NC(=O)[C@H]([C@@H](C)O)NC(=O)[C@H]([C@@H](C)O)NC(=O)CNC(=O)[C@@H]1CCCN1C(=O)[C@H](CCC(=O)O)NC(=O)[C@@H](NC(=O)[C@@H](NC(=O)[C@@H](NC(=O)[C@H](CCC(=O)O)NC(=O)[C@H](CO)NC(=O)CN)C(C)C)[C@@H](C)O)CSSC[C@H](NC(=O)[C@H](CCCNC(=N)N)NC3=O)C(=O)NCC(=O)N[C@@H](CO)C(=O)N[C@@H](CC(=O)O)C(=O)NCC(=O)N[C@@H](CCCCN)C(=O)N[C@@H](CO)C(=O)N[C@@H](C)C(=O)N[C@@H](Cc1c[nH]c3ccccc13)C(=O)N2` the Kd was 0.0315 µM (Chymotrypsin-C (Homo sapiens, UniProt Q99895); cell-free assay, FP; pH 8).
The Kd of `CC[C@H](C)[C@H](NC(=O)[C@@H](NC(=O)[C@@H]1CCCN1C(=O)[C@@H](NC(=O)[C@@H]1CCCN1C(=O)[C@H](CCCCN)NC(=O)[C@H](CCCCN)NC(=O)[C@H](CO)NC(=O)CNC(=O)CCOCCOCCOCCOCc1cn(CCCNC(=O)CCCCC[N+]2=C(/C=C/C=C3/N(C)c4ccccc4C3(C)C)C(C)(C)c3ccccc32)nn1)C(C)C)[C@@H](C)CC)C(=O)N[C@@H](Cc1ccc(O)cc1)C(=O)N[C@H]1CSSC[C@@H](C(=O)N[C@@H](CCC(N)=O)C(=O)N[C@@H](CCCNC(=N)N)C(=O)N[C@@H](CCSC)C(=O)O)NC(=O)[C@H](CCCCN)NC(=O)CNC(=O)[C@H]([C@@H](C)O)NC(=O)[C@H](CCCNC(=N)N)NC(=O)[C@H](CCCNC(=N)N)NC(=O)[C@H](CC(N)=O)NC1=O` is reported as 0.04 µM (lptE/lptD (Escherichia coli, UniProt P0ADC1+P31554); binding, fluorescence titration; pH 8, room temperature, 1% octyl glucoside).
With `CC[C@H](C)[C@H](NC(=O)[C@H](CCC(=O)O)NC(=O)[C@H](CCCNC(=N)N)NC(=O)[C@H](C)NC(=O)[C@H](C)NC(=O)[C@H](CCC(N)=O)NC(=O)[C@H](CCC(=O)O)NC(=O)[C@H](CCC(=O)O)NC(C)=O)C(=O)NCC(=O)N[C@@H](C)C(=O)N[C@@H](CCC(N)=O)C(=O)N[C@@H](CC(C)C)C(=O)N[C@@H](CCCNC(=N)N)C(=O)N[C@@H](CCCNC(=N)N)C(=O)N[C@@H](CCSC)C(=O)N[C@@H](C)C(=O)N[C@@H](CC(=O)O)C(=O)N[C@@H](CC(=O)O)C(=O)N[C@@H](CC(C)C)C(=O)N[C@@H](CC(N)=O)C(=O)N[C@@H](C)C(=O)N[C@@H](CCC(N)=O)C(=O)N[C@@H](Cc1ccc(O)cc1)C(=O)N[C@@H](CCC(=O)O)C(=O)N[C@@H](CCCNC(=N)N)C(N)=O` the Kd was 0.05 µM (BCL-2 ΔC human; binding, ITC).
`CC(C)C[C@H](NC(=O)[C@H](CO)NC(=O)[C@@H]1CCCN1C(=O)[C@H](CCC(N)=O)NC(=O)[C@@H](NC(=O)[C@H](C)NC(=O)[C@H](CCCCN)NC(=O)[C@H](C)NC(=O)[C@H](Cc1ccc(O)cc1)NC(=O)[C@H](COP(=O)(O)O)NC(=O)[C@H](CCC(=O)O)NC(=O)[C@H](CCCNC(=N)N)NC(=O)[C@H](CCCNC(=N)N)NC(=O)[C@H](C)NC(=O)[C@H](C)N)[C@@H](C)O)C(=O)O` has a Kd of 0.03 ± 0.01 µM (Membrane-associated guanylate kinase, WW and PDZ domain-containing protein 2 (Magi2, Mus musculus, UniProt Q9WVQ1); ITC; pH 8.0, 25 °C, added: tandem peptide).
For `CC[C@H](C)[C@H](NC(=O)[C@H](CO)NC(=O)[C@H](CO)NC(=O)[C@H](CCC(=O)O)NC(=O)[C@H](CCC(=O)O)NC(=O)[C@H](CCCCN)NC(=O)[C@H](CO)NC(=O)[C@@H](NC(=O)[C@H](CO)NC(=O)[C@H](CC(C)C)NC(=O)[C@H](Cc1ccccc1)NC(=O)[C@H](CCCNC(=N)N)NC(=O)[C@H](C)NC(=O)[C@H](Cc1ccccc1)NC(=O)[C@H](Cc1ccccc1)NC(=O)[C@@H]1CCCN1C(=O)[C@H](CC(C)C)NC(=O)[C@H](C)NC(=O)[C@H](CCCCN)NC(=O)CNC(=O)[C@H](CCC(N)=O)NC(=O)[C@H](CCC(N)=O)NC(=O)[C@H](CC(=O)O)NC(=O)[C@H](CC(N)=O)NC(=O)[C@@H]1CCCN1C(=O)[C@H](Cc1ccc(O)cc1)NC(=O)[C@H](C)NC(=O)[C@@H](N)CCSC)C(C)C)C(=O)N[C@@H](CCCCN)C(=O)N[C@@H](CO)C(=O)N1CCC[C@H]1C(=O)N[C@@H](CO)C(=O)N1CCC[C@H]1C(=O)N[C@@H](CC(=O)O)C(=O)N[C@@H](Cc1c[nH]cn1)C(=O)N[C@@H](CCC(=O)O)C(=O)N[C@H](C(=O)N[C@@H](CO)C(=O)N[C@H](C(=O)N[C@@H](CCCNC(=N)N)C(=O)N[C@@H](CCCCN)C(=O)N[C@@H](Cc1ccc(O)cc1)C(=O)N1CCC[C@H]1C(=O)N[C@@H](CO)C(=O)N[C@@H](CC(=O)O)C(=O)N[C@@H](Cc1c[nH]c2ccccc12)C(=O)N[C@@H](CCC(=O)O)C(=O)N[C@@H](CCC(=O)O)C(=O)N[C@@H](Cc1c[nH]c2ccccc12)C(=O)O)[C@@H](C)O)[C@@H](C)CC`, the Kd was 0.568 ± 0.08 µM (uncharacterized protein (Microcystis aeruginosa MRC, UniProt B2G3D0, D281A)).
With `CC(C)C[C@@H]1NC(=O)[C@H](CC(C)C)NC(=O)[C@H](CC(C)C)NC(=O)[C@H]([C@@H](C)O)NC(=O)[C@@H]2CSSC[C@@H]3NC(=O)[C@H]([C@@H](C)O)NC(=O)[C@H](CC(N)=O)NC(=O)[C@H](CSSC[C@@H](C(=O)N[C@H](C(=O)N[C@@H](CCC(N)=O)C(=O)O)C(C)C)NC1=O)NC(=O)[C@H](CCCCN)NC(=O)[C@H](CC(=O)O)NC(=O)[C@H](CCCCN)NC(=O)[C@H](Cc1ccccc1)NC(=O)[C@H]([C@@H](C)O)NC(=O)[C@H]([C@@H](C)O)NC(=O)CNC(=O)[C@@H]1CCCN1C(=O)[C@H](CCC(=O)O)NC(=O)[C@@H](NC(=O)[C@@H](NC(=O)[C@@H](NC(=O)[C@H](CCC(=O)O)NC(=O)[C@H](CO)NC(=O)CN)C(C)C)[C@@H](C)O)CSSC[C@H](NC(=O)[C@H](CCCNC(=N)N)NC3=O)C(=O)NCC(=O)N[C@@H](CO)C(=O)N[C@@H](CC(=O)O)C(=O)NCC(=O)N[C@@H](CCCCN)C(=O)N[C@@H](CO)C(=O)N[C@@H](C)C(=O)N[C@@H](Cc1c[nH]c3ccccc13)C(=O)N2` the Kd was 0.0231 ± 0.00316 µM (Chymotrypsin-C S216A; competitive fluorescence polarization; 24 h, pH 8.0, added: FITC-labelled tracer).
`BODIPY-ATP` gave a Kd of 13.5 ± 3.4 µM (GMP reductase (guaB1, Mycolicibacterium smegmatis, UniProt A0QYE8); fluorescence anisotropy; pH 6.6, 25 °C, without GMP).
For `CC(=O)N[C@@H](CCCNC(=N)N)C(=O)N[C@H](C(=O)N[C@@H](CCCCN)C(=O)N[C@@H](CO)C(=O)N[C@@H](CCCNC(=N)N)C(=O)N[C@H](C(=O)N[C@@H](Cc1c[nH]c2ccccc12)C(=O)N[C@@H](C)C(=O)N[C@@H](C)C(N)=O)[C@@H](C)OP(=O)(O)O)[C@@H](C)O`, the Kd was 0.0842 µM (14-3-3 protein epsilon (Homo sapiens, UniProt P62258); binding, SPR).
For `CC(=O)NCCCC[C@H](NC(=O)[C@@H](NC(=O)CNC(=O)CNC(=O)[C@@H](NC(=O)[C@H](C)N)[C@@H](C)O)C(C)C)C(=O)N[C@@H](CCCCN)C(=O)N1CCC[C@H]1C(=O)N[C@@H](Cc1c[nH]cn1)C(=O)N[C@@H](CCCNC(=N)N)C(=O)N[C@@H](Cc1ccc(O)cc1)C(=O)O`, the Kd was 460 µM (YEATS domain-containing protein 4, YEATS domain (Homo sapiens, UniProt O95619); isothermal titration calorimetry; pH 7.6, 25 °C, added: histone peptide).
With `CSCC[C@@H]1NC(=O)[C@H](CC(C)C)NC(=O)[C@H]([C@@H](C)O)NC(=O)[C@@H]2CSSC[C@@H]3NC(=O)[C@H]([C@@H](C)O)NC(=O)[C@H](CC(N)=O)NC(=O)[C@H](CSSC[C@@H](C(=O)N[C@@H](CC(=O)O)C(=O)N[C@@H](CCC(N)=O)C(=O)O)NC(=O)[C@H](CC(C)C)NC1=O)NC(=O)[C@H](CCCCN)NC(=O)[C@H](CC(=O)O)NC(=O)[C@H](CCCCN)NC(=O)[C@H](Cc1ccccc1)NC(=O)[C@H]([C@@H](C)O)NC(=O)[C@H]([C@@H](C)O)NC(=O)CNC(=O)[C@@H]1CCCN1C(=O)[C@H](CCC(=O)O)NC(=O)[C@@H](NC(=O)[C@@H](NC(=O)[C@@H](NC(=O)[C@H](CCC(=O)O)NC(=O)[C@H](CO)NC(=O)CN)C(C)C)[C@@H](C)O)CSSC[C@H](NC(=O)[C@H](CCCNC(=N)N)NC3=O)C(=O)NCC(=O)N[C@@H](CO)C(=O)N[C@@H](CC(=O)O)C(=O)NCC(=O)N[C@@H](CCCCN)C(=O)N[C@@H](CO)C(=O)N[C@@H](C)C(=O)N[C@@H](C)C(=O)N2` the Kd was 0.00012 ± 1e-05 µM (Chymotrypsin-C S216A; binding, competitive fluorescence polarisation; 24 h, pH 8.0, added: FITC-labelled tracer).
With `O=C(N[C@@H]1c2ccccc2C[C@H]1N1CCCC1)c1ccc(-c2ccnc3[nH]ccc23)nc1` the Kd was 3 µM (MAP2K2 (Homo sapiens, UniProt P36507); binding, competition with immobilised ligand).
`CC(=O)N[C@@H](CO)C(=O)N[C@@H](Cc1ccccc1)C(=O)N[C@@H](CCC(=O)O)C(=O)N[C@@H](Cc1ccccc1Cl)C(=O)N1CCC[C@]12C=C[C@@H]1CC[C@@H](C(=O)N3CC[C@@H]4C=C[C@H]5CC[C@@H](C(=O)N[C@H](C(=O)N[C@@H](CCC(=O)O)C(=O)N[C@@H](CC(=O)O)C(=O)N[C@@H](CCC(=O)O)C(=O)N[C@@H](CC(C)C)C(N)=O)[C@@H](C)O)N5C(=O)[C@H]43)N1C2=O` gave a Kd of 0.26 µM (Ena/VASP-like protein, EVH1 domain (EVL, Homo sapiens, UniProt Q9UI08); isothermal titration calorimetry).
For `CC(C)C[C@H](NC(=O)[C@@H]1CCCN1C(=O)[C@H](CCCCN)NC(=O)[C@@H](N)CO)C(=O)N1CCC[C@H]1C(=O)N[C@@H](CCC(=O)O)C(=O)N[C@H](C(=O)N[C@H](C(=O)N[C@@H](CC(=O)O)C(=O)N[C@@H](CCC(=O)O)C(=O)N[C@@H](Cc1ccc(O)cc1)C(=O)NCC(=O)NCCOCCOCCOCCOCCC(=O)N[C@@H](CCCCNC(=O)CC[C@H](C(=O)O)N1CCN(CC(=O)O)CCN(CC(=O)O)CC1)C(=O)N1CCN(CCCN(C)c2ccc3nccc(C(=O)NCC(=O)N4CC(F)(F)C[C@H]4C#N)c3c2)CC1)[C@@H](C)O)C(C)C` [copper-64 labelled], the Kd was 0.00207 µM (FAP (Homo sapiens, UniProt Q12884); binding, 64Cu radioligand saturation; HT-1080 expressing hFAP; 1 h, 37 °C, added: FAPI-04 1 µM for nonspecific).
`O=C1NC2(CC2)COc2ncc(F)cc2[C@H]2COCCN2c2ccn3ncc1c3n2` gave an organ weight of 1.89 ± 0.099 g (Sprague-Dawley rat, female, brain; oral, 20 mg/kg/day, 4 weeks).

Repeated from above:
`CC(C)C[C@H](NC(=O)[C@H](CO)NC(=O)[C@@H]1CCCN1C(=O)[C@H](CCC(N)=O)NC(=O)[C@@H](NC(=O)[C@H](C)NC(=O)[C@H](CCCCN)NC(=O)[C@H](C)NC(=O)[C@H](Cc1ccc(O)cc1)NC(=O)[C@H](COP(=O)(O)O)NC(=O)[C@H](CCC(=O)O)NC(=O)[C@H](CCCNC(=N)N)NC(=O)[C@H](CCCNC(=N)N)NC(=O)[C@H](C)NC(=O)[C@H](C)N)[C@@H](C)O)C(=O)O` has a Kd of 0.03 ± 0.01 µM (Membrane-associated guanylate kinase, WW and PDZ domain-containing protein 2 (Magi2, Mus musculus, UniProt Q9WVQ1); ITC; pH 8.0, 25 °C, added: tandem peptide).
